# Experimental data gathered from unrelated publications.
# Parts stem from different laboratories: compare values within a part only.
# Chain of UniProt Q9P2K8 (whole entry, unmodified, looked up): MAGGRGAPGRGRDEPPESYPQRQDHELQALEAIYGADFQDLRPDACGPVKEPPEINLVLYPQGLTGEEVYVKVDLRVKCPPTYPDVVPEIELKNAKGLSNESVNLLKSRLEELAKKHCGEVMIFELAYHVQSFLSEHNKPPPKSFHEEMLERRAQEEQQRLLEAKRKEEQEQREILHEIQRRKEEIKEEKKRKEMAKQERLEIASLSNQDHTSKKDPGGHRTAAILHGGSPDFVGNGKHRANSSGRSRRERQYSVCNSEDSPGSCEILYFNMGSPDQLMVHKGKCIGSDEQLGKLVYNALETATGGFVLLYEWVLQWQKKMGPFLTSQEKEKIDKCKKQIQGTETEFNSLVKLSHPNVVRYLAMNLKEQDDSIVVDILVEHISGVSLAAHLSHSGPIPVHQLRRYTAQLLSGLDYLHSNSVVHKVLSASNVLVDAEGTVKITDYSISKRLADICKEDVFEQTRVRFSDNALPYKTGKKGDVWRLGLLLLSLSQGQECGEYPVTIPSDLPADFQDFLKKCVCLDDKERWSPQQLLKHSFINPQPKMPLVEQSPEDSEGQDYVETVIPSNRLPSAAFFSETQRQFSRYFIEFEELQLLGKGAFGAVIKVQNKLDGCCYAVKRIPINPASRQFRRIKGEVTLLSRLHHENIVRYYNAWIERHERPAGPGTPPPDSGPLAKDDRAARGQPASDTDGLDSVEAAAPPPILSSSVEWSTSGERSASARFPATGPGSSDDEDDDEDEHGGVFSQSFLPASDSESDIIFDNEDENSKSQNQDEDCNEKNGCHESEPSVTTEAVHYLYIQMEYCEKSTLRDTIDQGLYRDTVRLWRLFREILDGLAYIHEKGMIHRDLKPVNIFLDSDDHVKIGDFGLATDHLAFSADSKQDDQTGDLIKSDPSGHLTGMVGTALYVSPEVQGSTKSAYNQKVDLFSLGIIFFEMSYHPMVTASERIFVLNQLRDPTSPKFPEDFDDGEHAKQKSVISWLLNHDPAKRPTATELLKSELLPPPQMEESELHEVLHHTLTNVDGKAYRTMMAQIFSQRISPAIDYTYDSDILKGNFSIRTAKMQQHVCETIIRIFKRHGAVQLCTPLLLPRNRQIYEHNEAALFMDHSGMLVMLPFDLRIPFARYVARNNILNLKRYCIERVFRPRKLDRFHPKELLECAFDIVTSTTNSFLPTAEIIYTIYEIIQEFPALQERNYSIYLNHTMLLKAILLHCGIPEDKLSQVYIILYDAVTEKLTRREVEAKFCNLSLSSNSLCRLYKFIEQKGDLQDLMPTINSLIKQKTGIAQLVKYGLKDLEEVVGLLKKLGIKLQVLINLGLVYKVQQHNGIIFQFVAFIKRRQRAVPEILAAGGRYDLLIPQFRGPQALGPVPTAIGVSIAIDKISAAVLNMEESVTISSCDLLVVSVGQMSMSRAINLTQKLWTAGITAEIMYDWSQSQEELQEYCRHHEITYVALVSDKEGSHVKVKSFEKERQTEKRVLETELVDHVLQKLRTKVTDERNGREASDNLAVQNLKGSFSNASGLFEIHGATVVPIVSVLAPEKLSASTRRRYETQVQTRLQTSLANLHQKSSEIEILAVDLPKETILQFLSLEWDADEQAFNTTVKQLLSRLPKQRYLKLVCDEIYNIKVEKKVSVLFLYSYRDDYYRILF
# Chain of UniProt Q02156 (whole entry, looked up): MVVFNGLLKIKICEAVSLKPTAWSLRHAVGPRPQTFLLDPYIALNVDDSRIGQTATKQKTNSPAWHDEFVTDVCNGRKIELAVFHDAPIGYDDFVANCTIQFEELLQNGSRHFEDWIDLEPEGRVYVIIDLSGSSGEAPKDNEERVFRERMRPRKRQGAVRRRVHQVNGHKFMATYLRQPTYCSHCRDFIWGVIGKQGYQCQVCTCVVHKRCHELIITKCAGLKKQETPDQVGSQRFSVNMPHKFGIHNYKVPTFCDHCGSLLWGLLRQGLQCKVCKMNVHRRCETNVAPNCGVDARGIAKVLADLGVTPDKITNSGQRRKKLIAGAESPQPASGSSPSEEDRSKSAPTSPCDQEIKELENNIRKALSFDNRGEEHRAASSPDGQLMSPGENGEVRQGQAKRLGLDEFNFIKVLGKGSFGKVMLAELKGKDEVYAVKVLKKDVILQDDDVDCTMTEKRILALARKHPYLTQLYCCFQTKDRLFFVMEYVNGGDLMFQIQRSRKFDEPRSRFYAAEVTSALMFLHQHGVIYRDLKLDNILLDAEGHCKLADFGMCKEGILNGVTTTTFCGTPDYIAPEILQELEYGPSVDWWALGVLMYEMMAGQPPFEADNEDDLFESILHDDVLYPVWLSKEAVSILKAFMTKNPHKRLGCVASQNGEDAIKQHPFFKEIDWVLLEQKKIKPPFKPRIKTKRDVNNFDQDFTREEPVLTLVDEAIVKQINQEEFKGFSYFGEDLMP
# Chain of UniProt Q03141 (whole entry, looked up): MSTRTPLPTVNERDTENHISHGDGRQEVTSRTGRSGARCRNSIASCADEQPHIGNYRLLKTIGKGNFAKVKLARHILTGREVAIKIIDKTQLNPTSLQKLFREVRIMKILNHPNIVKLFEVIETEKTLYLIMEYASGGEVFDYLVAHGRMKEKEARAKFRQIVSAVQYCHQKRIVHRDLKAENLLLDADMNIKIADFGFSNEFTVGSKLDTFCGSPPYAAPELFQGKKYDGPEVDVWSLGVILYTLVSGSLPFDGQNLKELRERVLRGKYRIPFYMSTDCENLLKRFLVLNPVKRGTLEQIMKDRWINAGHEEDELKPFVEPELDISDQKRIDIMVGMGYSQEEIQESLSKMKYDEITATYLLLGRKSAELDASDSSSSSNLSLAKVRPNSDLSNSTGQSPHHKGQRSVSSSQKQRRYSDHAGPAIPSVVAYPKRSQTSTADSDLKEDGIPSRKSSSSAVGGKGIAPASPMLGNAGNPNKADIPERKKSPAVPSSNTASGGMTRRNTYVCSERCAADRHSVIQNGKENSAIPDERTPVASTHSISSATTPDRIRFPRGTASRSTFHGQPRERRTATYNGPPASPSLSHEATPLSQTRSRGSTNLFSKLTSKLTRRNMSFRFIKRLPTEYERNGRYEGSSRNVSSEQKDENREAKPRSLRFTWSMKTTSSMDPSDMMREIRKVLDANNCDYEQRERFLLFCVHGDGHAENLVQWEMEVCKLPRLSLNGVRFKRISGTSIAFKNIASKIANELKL
# Chain of UniProt Q9NY57 (whole entry, looked up): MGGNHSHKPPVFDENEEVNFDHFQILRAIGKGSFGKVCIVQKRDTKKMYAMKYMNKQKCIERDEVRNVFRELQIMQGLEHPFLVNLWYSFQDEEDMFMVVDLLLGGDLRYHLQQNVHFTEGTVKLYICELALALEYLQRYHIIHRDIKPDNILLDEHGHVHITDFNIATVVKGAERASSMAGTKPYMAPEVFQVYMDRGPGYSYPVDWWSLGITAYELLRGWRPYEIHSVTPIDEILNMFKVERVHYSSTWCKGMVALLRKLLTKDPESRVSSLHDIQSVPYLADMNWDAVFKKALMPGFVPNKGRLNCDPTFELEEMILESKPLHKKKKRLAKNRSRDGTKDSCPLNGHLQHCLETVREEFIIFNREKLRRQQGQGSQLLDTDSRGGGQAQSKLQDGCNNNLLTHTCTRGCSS
# Chain of UniProt Q8IVW4 (whole entry, looked up): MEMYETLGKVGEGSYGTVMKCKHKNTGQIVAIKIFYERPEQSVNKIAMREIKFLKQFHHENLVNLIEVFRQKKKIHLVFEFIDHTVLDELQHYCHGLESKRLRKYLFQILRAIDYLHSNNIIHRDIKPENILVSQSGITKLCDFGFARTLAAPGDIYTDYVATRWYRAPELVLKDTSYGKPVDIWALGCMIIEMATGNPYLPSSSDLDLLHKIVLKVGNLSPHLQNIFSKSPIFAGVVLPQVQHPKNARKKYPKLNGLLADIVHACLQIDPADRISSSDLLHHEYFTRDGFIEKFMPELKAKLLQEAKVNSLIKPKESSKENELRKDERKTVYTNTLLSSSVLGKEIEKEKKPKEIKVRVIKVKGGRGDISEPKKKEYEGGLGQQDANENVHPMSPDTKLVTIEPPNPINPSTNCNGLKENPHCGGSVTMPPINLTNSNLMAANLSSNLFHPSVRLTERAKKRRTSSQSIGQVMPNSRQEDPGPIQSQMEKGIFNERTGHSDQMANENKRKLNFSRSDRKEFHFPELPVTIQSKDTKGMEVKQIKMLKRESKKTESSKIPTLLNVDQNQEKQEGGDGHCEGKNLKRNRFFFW
# Chain of UniProt P43403 (whole entry, looked up): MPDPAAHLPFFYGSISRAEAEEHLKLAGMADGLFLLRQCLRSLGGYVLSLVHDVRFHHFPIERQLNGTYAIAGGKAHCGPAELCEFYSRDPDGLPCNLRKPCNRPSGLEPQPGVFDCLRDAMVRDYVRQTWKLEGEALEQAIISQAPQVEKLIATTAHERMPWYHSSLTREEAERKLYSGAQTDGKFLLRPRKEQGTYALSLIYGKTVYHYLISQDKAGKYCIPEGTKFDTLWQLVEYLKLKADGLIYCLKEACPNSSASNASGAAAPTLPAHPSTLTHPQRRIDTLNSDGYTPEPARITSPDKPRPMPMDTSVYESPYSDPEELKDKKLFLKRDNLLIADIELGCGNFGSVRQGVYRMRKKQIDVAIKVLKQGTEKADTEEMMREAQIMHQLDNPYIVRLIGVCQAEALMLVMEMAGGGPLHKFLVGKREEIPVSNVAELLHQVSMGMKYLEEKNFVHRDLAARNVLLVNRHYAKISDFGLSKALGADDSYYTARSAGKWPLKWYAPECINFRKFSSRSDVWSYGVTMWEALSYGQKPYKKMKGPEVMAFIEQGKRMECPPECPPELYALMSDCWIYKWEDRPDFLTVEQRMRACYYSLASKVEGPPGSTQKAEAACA

# Block 1
# SMILES: COc1cc(C(=O)N2CCC(N3CCN(C)CC3)CC2)ccc1Nc1ncc2c(n1)N(C)c1ccccc1C(=O)N2C
target or system,assay,system,conditions,inhibition [%]
MAPKAPK2 (human),"probe labelling, KiNativ ATP probe",human PBMC lysate,"concentration not given, LYS1 labelled site",7.1
FER (mouse),"probe labelling, KiNativ ADP probe",mouse brain lysate,"1 µM, LYS1 labelled site",-4
mouse MAP3K5/MAP3K6/MAP3K7,"probe labelling, KiNativ ATP probe",mouse brain lysate,"1 µM, LYS1 site IAIkEIPER",1.8
mouse CaMK2γ,"probe labelling, KiNativ ATP probe",mouse brain lysate,"0.1 µM, LYS1 site TSTQEYAAkIINTK",-26.8
NEK9 (mouse),"probe labelling, KiNativ ADP probe",mouse brain lysate,"1 µM, LYS1 labelled site",11.5
WNK1/WNK2/WNK4 (mouse),"probe labelling, inhibitor, KiNativ ActivX ATP probe",mouse brain lysate,"1 µM, activation loop peptide IGDLGLATLkR",-7.8
MARK1 (mouse),"probe labelling, KiNativ ATP probe",mouse brain lysate,"1 µM, LYS1 labelled site",13.3
SLK,,,1 µM,-16.5
mouse ILK,"probe labelling, KiNativ ATP probe",mouse brain lysate,"1 µM, kinase domain ISMADVkFSFQCPGR",-20.2
human PBMC,"probe labeling, inhibitor, KiNativ profiling",cell lysate,"concentration not given, LYS1 site, with: ADP acyl-phosphate probe 0.1 µM",-1.6
human PBMC,"probe labeling, inhibitor, KiNativ profiling",cell lysate,"concentration not given, domain 1, LYS2 site, with: ADP acyl-phosphate probe 0.1 µM",-6.3
"MAP/microtubule affinity-regulating kinase 3 (Mark3, Mus musculus, UniProt Q03141)",KiNativ profiling,mouse brain lysate,"1 µM, LYS1 site, with: ADP acyl phosphate probe",0.3

# Block 2
# SMILES: CO[C@H]1CC[C@H](CNc2ccc(S(=O)(=O)NC(=O)c3ccc(N4CCN(CC5=C(c6ccc(Cl)cc6)CC(C)(C)CC5)CC4)cc3Oc3cnc4[nH]ccc4c3)cc2[N+](=O)[O-])CC1
# Read-out: cell-free assay
# Technique: competition with immobilised ligand
# Concentration: 1 µM
target,remaining binding
"Mast/stem cell growth factor receptor Kit, autoinhibited (KIT, Homo sapiens, UniProt P10721)",100%
"NTRK3 (Homo sapiens, UniProt Q16288)",100%
"CDKL3 (Homo sapiens, UniProt Q8IVW4)",83%
"PRKCE (Homo sapiens, UniProt Q02156)",79%
"eIF-2-alpha kinase GCN2, C-terminal kinase domain (EIF2AK4, Homo sapiens, UniProt Q9P2K8, S808G)",96%
"STK32B (Homo sapiens, UniProt Q9NY57)",100%
"COQ8A (Homo sapiens, UniProt Q8NI60)",99%
"ZAP70 (Homo sapiens, UniProt P43403)",97%
"FGR (Homo sapiens, UniProt P09769)",100%
"PIK3CA (Homo sapiens, UniProt P42336, M1043I)",74%

# Block 3
# Organism: Plasmodium berghei
# Mode: inhibitor
# Cells: Huh-7
# Strain: GFP-expressing sporozoites, liver stage
# Concentration: 10 µM
# Time: 24 h
# Relative to: untreated control
Compound,infection rate [%]
O=C(O)C1=C(CSc2nnnn2CS(=O)(=O)O)CS[C@@H]2[C@H](NC(=O)[C@H](O)c3ccccc3)C(=O)N12,93.5
C[C@@](Cc1ccc(O)c(O)c1)(NN)C(=O)O,68.8
COc1cc(CNC(=O)CCCC/C=C/C(C)C)ccc1O,79
O=C(O)[C@H]1/C(=C/CO)O[C@@H]2CC(=O)N21,103
O=C(CCCN1CCC(O)(c2ccc(Br)cc2)CC1)c1ccc(F)cc1,64.4
CC[C@H]1OC(=O)[C@H](C)[C@@H](O[C@H]2C[C@@](C)(OC)[C@@H](O)[C@H](C)O2)[C@H](C)[C@@H](O[C@@H]2O[C@H](C)C[C@H](N(C)C)[C@H]2O)[C@](C)(OC)C[C@@H](C)C(=O)[C@H](C)[C@@H](O)[C@]1(C)O,99.2
CC(=O)Nc1ccc(O)cc1,112
CCCc1ncc(C[n+]2ccccc2C)c(N)n1,98.4
CCCCC(=O)O[C@]1(C(=O)CO)[C@@H](C)C[C@H]2[C@@H]3CCC4=CC(=O)C=C[C@]4(C)[C@@]3(F)[C@@H](O)C[C@@]21C,77.1
CN1CCN(C(c2ccccc2)c2ccccc2)CC1,105

# Block 4
# Cell line: HaCaT
# Concentration: 100 µM
# Time: 60 h
Structure (SMILES),viability [%]
CC(=O)Nc1ccc(OC(=O)c2ccccc2OC(C)=O)cc1,115
O=C(NCCN1CCOCC1)c1ccc(Cl)cc1,156
CC1(C)C[C@@H]1C(=O)N/C(=C\CCCCSC[C@H](N)C(=O)O)C(=O)O,150
CCCCC(C)(O)C/C=C/[C@H]1[C@H](O)CC(=O)[C@@H]1CCCCCCC(=O)OC (mixture of isomers),127
CCOC(=O)[C@H](CCc1ccccc1)N[C@@H](C)C(=O)N1Cc2ccccc2C[C@H]1C(=O)O,134
C[C@H](CCC(=O)O)[C@H]1CC[C@H]2[C@@H]3[C@H](O)C[C@@H]4C[C@H](O)CC[C@]4(C)[C@H]3C[C@H](O)[C@]12C,127
CN1C2=CC(=O)/C(=N\NC(N)=O)C=C2CC1S(=O)(=O)O (stereo not drawn),139

# Excerpt of the above (block 4):
Structure (SMILES),viability [%]
CCCCC(C)(O)C/C=C/[C@H]1[C@H](O)CC(=O)[C@@H]1CCCCCCC(=O)OC (mixture of isomers),127
CC1(C)C[C@@H]1C(=O)N/C(=C\CCCCSC[C@H](N)C(=O)O)C(=O)O,150
CN1C2=CC(=O)/C(=N\NC(N)=O)C=C2CC1S(=O)(=O)O (stereo not drawn),139
